Assay results from different studies.
Protocols differ between the studies behind these lines. “And” joins repeats or separate records; there may be more than shown. Numbers after ± are the reported error. Where no end group is shown, it is not given here. [ ]: non-standard residue; d: D form.
SCRIB PDZ3 domain: Protein scribble homolog, PDZ3 domain (SCRIB, Homo sapiens, UniProt Q14160)
HLA class I histocompatibility antigen, A alpha chain allele A*02:01: HLA class I histocompatibility antigen, A alpha chain, allele A*02:01 (Homo sapiens, UniProt P04439)

`methyl-β-cyclodextrin`: “glycine uptake rate” 43.9 a.u. and 43.4 a.u. and 43.2 a.u. and 38.2 a.u. and 21.1 a.u. (SLC6A9 (Homo sapiens, UniProt P48067); transport activity, [3H]glycine uptake; 3.5 mg/mL, 1 min, added: glycine 150 µM; higher = more transport).
With `V[Aib]IA (Aib2; Aib = CC(C)(N)C(=O)O)` the ThT fluorescence was 88.1% (APP (Homo sapiens, UniProt P05067); aggregation, ThT fluorescence; 24 h, 37 °C, Aβ to peptide ratio 1:1, added: Aβ1–42 2 µM; reference: Aβ1–42 alone, lower is stronger inhibition).
`ELPHSVNSKL` gave a Kd of 100 µM (SCRIB PDZ3 domain; binding, fluorescence polarization; peptide, solution; Scribble PDZ3 domain).
The binding score of `QLMPFGSLLD` is reported as 5.9% (HLA class I histocompatibility antigen, A alpha chain allele A*02:01; conformational ELISA; peptide; concentration not given; reference: positive control peptide, direction not given).
`LMDLSTTEV` has a relative affinity of 0.43 (HLA class I histocompatibility antigen, A alpha chain allele A*02:01; HLA-A2 stabilization, peptide titration; peptide, T2; 20 h, 37 °C, added: human β2-microglobulin 100 ng/mL; reference: HIVpol reference peptide, lower is stronger).
`11-deoxycorticosterone` — result for “rate constant k-1”: 1.23 ± 0.123 s⁻¹ (CYP11B2 (human); substrate binding, stopped-flow global kinetic fitting; purified enzyme; 3-state conformational selection model, added: no adrenodoxin).
`TASPAKETSF` gave a binding intensity of 0.839 (human SCRIB PDZ3-4 tandem (MBP fusion); automated holdup; peptide, crude extract; concentration not given, uncorrected, unit not given; reference: biotin control resin, higher = stronger binding).
For `QLMPFGSLLDY`, the binding score was 89.2% (HLA class I histocompatibility antigen, A alpha chain, allele A*01:01 (Homo sapiens, UniProt P04439); conformational ELISA; peptide; concentration not given; reference: positive control peptide, direction not given).
Under “dissociation rate k4”, `Et-DADMe-ImmA` is recorded as 0.12 ± 0.003 min⁻¹ (Aminodeoxyfutalosine nucleosidase (Helicobacter pylori, UniProt Q9ZMY2); radiolabel chase ultrafiltration; pH 7.4).
`KAQLYGTLLN` has a Kd of 100 µM (SCRIB PDZ3 domain; binding, fluorescence polarization; peptide, solution; Scribble PDZ3 domain).
With `MQLMPFGCL` the binding score was 33.2% (HLA class I histocompatibility antigen, A alpha chain allele A*02:01; conformational ELISA; peptide; concentration not given; reference: positive control peptide, direction not given).
`6-carboxyfluorescein` has an uptake of 60.3% and 65.3% (SLCO2A1 (Homo sapiens, UniProt Q92959, Y90A); compound uptake, substrate; HEK293F expressing SLCO2A1 Y90A; 50 µM; reference: wild type).
The fraction bound of `milbemycin oxime` is reported as 26% (CDR1 (Candida albicans, UniProt Q5ANA3); binding, microscale thermophoresis; 78.2 nM).
With `alkynyl-farnesyl pyrophosphate` the Vmax was 3.1 fmol/min (Protein farnesyltransferase (Rattus norvegicus, UniProt Q02293+Q04631); peptide prenylation, substrate, fluorescence anisotropy; added: FAM-RHEB peptide).
`TQLMPFGSLL` gave a binding score of 7.9% (HLA class I histocompatibility antigen, A alpha chain allele A*02:01; conformational ELISA; peptide; concentration not given; reference: positive control peptide, direction not given).
`BzATP` gave a normalized current of 0 (P2X purinoceptor 7 (P2rx7, Rattus norvegicus, UniProt Q64663, I214A/R125A); ion current, agonist, two-electrode voltage clamp; Xenopus laevis oocytes; 0.41 µM; reference: highest concentration response).
For `IMQLMPFGCLL`, the binding score was 27.1% (HLA class I histocompatibility antigen, A alpha chain, allele A*24:02 (Homo sapiens, UniProt P04439); conformational ELISA; peptide; concentration not given; reference: positive control peptide, direction not given).
With `GSGAGICTIV` the binding intensity was 0.0758 (human MAGI1-3/6 PDZ construct (MBP fusion); automated holdup; peptide, purified PDZ protein; concentration not given, unit not given; reference: biotin control resin, higher = stronger binding).

A few entries again:
With `alkynyl-farnesyl pyrophosphate` the Vmax was 3.1 fmol/min (Protein farnesyltransferase (Rattus norvegicus, UniProt Q02293+Q04631); peptide prenylation, substrate, fluorescence anisotropy; added: FAM-RHEB peptide).
`TQLMPFGSLL` gave a binding score of 7.9% (HLA class I histocompatibility antigen, A alpha chain allele A*02:01; conformational ELISA; peptide; concentration not given; reference: positive control peptide, direction not given).
